# Experimental data pooled from the literature.
# Parts stem from different laboratories: compare values within a part only.

# Series 1
# Target: Myc proto-oncogene protein, bHLH-zipper, MAX partner unstated (MYC, Homo sapiens, UniProt P01106, residues 368-449)
# UniProt P01106, sequence (368-449, looked up): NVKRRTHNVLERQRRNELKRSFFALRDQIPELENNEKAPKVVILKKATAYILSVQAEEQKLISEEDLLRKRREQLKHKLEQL
# Method: protein-binding microarray
# Form: double-stranded DNA, one strand shown
# Matrix: in vitro
# Concentration: not given
# Notes: k-mer, scored over probes, only values ≥0.25
# Direction: higher = stronger binding
Strand,E-score
AGCAGGTG,0.349
GGACGCAC,0.289
ACACGCTA,0.313
CGTGCGCC,0.374
CATGGGCG,0.355
ACCCGCGT,0.256
ATGACATG,0.311
TGCCGCCA,0.251
ATGTGCTC,0.388
CGTGGGAC,0.405
AAGCACAT,0.346
ACGTGATA,0.415
AGGCATGC,0.375
AACGCACG,0.391
AGCACGAG,0.401
GCGCGGAA,0.268
ACGCGGTA,0.32
CCACGGCA,0.251
AAACGCGT,0.292
CCCCTCCA,0.368
CGCCCCTC,0.262
ATGAGGCA,0.328
ATCGTGTG,0.273
CATGCTGC,0.437
AGCGCGTG,0.45

# Series 2
# Target: Sal-like protein 4, full length isoform B (SALL4, Homo sapiens, UniProt Q9UJQ4-2, residues 1-616)
# Method: universal PBM
# Form: double-stranded DNA, one strand shown
# Matrix: in vitro
# Concentration: not given
# Notes: 8-mer, flanks averaged, mean of replicates
# Direction: higher = stronger binding
# Target sequence (chain): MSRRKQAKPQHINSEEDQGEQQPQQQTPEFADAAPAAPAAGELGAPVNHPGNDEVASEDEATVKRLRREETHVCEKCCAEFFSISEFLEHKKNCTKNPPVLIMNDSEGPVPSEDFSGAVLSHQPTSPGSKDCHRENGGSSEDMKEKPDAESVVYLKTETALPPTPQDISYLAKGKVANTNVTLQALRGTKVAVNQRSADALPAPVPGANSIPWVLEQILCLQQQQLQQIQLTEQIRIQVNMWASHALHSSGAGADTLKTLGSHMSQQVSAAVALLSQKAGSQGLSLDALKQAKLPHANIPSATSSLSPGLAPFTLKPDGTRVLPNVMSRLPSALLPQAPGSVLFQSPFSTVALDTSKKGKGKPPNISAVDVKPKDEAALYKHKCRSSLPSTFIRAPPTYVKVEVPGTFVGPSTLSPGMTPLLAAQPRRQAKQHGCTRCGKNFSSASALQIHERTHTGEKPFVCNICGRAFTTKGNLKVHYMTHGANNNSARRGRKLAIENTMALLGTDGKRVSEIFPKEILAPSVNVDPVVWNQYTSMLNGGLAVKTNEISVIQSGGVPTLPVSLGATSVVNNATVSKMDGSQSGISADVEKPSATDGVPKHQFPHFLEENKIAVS
Strand,E-score
GTTTCAGA,0.031
GTGTAAAA,0.248
CTGTACGC,-0.117
AGCCTCGC,-0.192
CCTGCTTC,-0.184
GCATGAAC,-0.0163
ACGCACGC,-0.141
CAAAGTGG,-0.242
CGCTAGCC,-0.255
TCCAACCA,-0.0544
CCAAGATA,0.136
AGTACTCC,-0.186
GAACTACA,-0.0954
ATCCCCGA,-0.0127
ATGTAGGC,-0.0205
GGATGTGA,-0.0445
GTCTCGAA,-0.0178
CCGGTACA,-0.127
AGCTTTTG,0.0235
CCAAGAGC,-0.326
CTGAGTTC,-0.0965

# Series 3
# Target: RING finger protein unkempt homolog, zinc fingers 1-6, GST-SBP tag (UNK, Homo sapiens, UniProt Q9C0B0, residues 30-357)
# Method: RNA Bind-n-Seq
# Form: RNA
# Matrix: in vitro
# Concentration: not given
# Notes: RNA with constant flanks, human and mouse sites, ends assumed
# Reference: input RNA pool
# Direction: higher = stronger binding
# Construct (chain): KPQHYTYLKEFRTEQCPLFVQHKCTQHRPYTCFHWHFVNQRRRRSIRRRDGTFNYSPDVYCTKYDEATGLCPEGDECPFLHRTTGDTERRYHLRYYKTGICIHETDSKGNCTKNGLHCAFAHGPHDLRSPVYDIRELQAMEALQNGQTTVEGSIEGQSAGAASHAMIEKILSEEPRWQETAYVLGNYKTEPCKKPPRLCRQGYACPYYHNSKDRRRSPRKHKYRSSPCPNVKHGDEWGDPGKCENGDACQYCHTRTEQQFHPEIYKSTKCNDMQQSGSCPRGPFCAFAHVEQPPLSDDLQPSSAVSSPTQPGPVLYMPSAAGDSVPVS
Strand,bound/input enrichment
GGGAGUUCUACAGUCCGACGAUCACUGCCAGGAGGGCAAACCAAAGAGAACCCUGUACAGUAAGAAAUAUGGUGUGGACCUCAUCAGAUACACUCAUGCAGCAAACACAGUUGUUUACAGCUCUAACAAAAUAGACGAUACUACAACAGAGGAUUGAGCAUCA,0.336 ratio
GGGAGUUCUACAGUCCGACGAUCCCUGAGCUAUUCACCAGAAAGGACCUUGGAAGCACGGAGGAUGGGGAUGGCACUGAUGACUUUUUGACAGACAAAGAGGAUGAGAAGGCAAAGCCCCCAAGAGAGAAGGCCACUGAUGAGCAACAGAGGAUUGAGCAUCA,0.122 ratio
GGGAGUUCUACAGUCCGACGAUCGGAAAUAACAAUCAAAAUAAACCAGGGUUCUUACGAAAGAAUCAGUAUACAAACACCAAAUUAGAAGUCAAGAAAAUCCCUCAGGAAUUGAACAACAUUACCAAGCUCAAUGAACACUUCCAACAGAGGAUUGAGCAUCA,2.71 ratio
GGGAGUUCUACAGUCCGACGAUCUAUUACGUAUUGUAGAAGGCCAUUGUUAACAAGAGUCUCCUGCUAUGAACCUGUUUGCAUUUUAGAAUCAGAGAAACUUUUAAUUUAUAACCUUUUAAGAAUCGAGGUCUUCAGCUCUGACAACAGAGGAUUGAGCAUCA,2.68 ratio
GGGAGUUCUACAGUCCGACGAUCGUGAUUUUUUCCCCCCCAACUCCGUGUUUCGCUAAGGAAUUAUUUCGCACACGGACCAUUCUUAGCAGUUUCCUCAGUGAUGGAAUAUUCAUGAAUGUGAGUCAUUAUGUAGCCGUCGUACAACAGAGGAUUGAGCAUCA,0.611 ratio
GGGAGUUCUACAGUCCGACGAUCGUGGAGGGCGCCAUCUAUGGUGUGGAUGGGAAACUGCUCCAGCUCCAAGAGGUUUUUCAGCUCUUUGACAACGCCAACUGCCCAAGCCUACAGAACAAACCAAAAAUGUUCUUCAUCCAGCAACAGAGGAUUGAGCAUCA,0.115 ratio
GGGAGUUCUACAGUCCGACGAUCUGCAGAAGACCCUCCGGCGGGCCAUUGGCAAGAGCCGCCCCUACUUUGAGCUCAAGGCCCAGUUCAGCCAAAUCCUGGAGGAGCACAAGGCCAAGGUGACAGAACUGGAGCAGCAGGUGGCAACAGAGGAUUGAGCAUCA,0.0981 ratio
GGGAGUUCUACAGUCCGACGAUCCGUGGAUUUAUCGCUGCCACGGUCUGCGUAGCUCCAGAGGUUUAACCAUAGGAUAGAGAAACCAGGAAUGUAAUGAGGAAAUCAAAAUGGAUCCAAGUAUGGGUGUGAAUUCUGUUACCACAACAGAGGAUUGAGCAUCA,1.58 ratio
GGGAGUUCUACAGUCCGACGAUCUCUGGCUUAGAUAAUAUGGCUACACACUUAAGUCAACAUAAAACUCAUACUUGCCAAGUUGUAAUGCAGAAAGUUUCUGUUUGUAUCCCAACUUCUGAGCACCUUUCUGAAUUAAAAAAACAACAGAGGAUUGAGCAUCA,0.313 ratio
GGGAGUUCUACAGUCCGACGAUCGCCUUCUUCACUUUGCCCAAGACUGACUCUGGUAAUGAGGAUUUAGUCAUAAUUUGGUUAAGAGACAUGCGGCUCAUGCAGGGUGAUGAGAUCUGUCUGCGGUACAAAGGGGAUCUGGCGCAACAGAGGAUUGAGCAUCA,0.318 ratio
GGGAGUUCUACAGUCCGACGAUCAUGAUAAUGGCAUCAGCUGCUAAGGAAUUUAAAAUGGACAACUUUUCACCUAAAGCUGGCACUAGCAAAUUGCAACAGACAGUACCAGCUGAUGCAUCUCCUGAUUCUAAGUGUCCUAUACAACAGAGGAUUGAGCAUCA,0.0871 ratio

# Series 4
# Target: RNA binding protein fox-1 homolog 2, RRM domain, GST-SBP tag (RBFOX2, Homo sapiens, UniProt O43251-10, residues 100-194)
# Method: RNA Bind-n-Seq
# Form: RNA
# Matrix: in vitro
# Concentration: 365 nM
# Notes: natural RNA segment, single round, ends assumed
# Reference: no-protein control
# Direction: higher = stronger binding
# Target sequence (chain): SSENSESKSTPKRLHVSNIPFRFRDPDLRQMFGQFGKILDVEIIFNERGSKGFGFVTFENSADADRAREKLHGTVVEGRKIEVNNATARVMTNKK
Strand,RBNS enrichment (R)
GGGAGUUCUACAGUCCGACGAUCGUGCUAUUGGGUUUUAUUUCCAGAAAAUAUAGUUCUCCUUUUUUCUGCAUGAAGGAUACAUCGUGGUGCCACAUGCUUUAAGCAAUUUAAACAAGAGAGAUAAGAGGAAAUGGAAUUCUCGGGUGCCAA,1.28
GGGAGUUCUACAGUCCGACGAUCCACCUGCUUUUCAGAAAGACUAUUAUUUCCUAACCAUGAGAAGCAGACUAUAAUAUUCAUAUUUAAACAAAGCAAUUUUUUUUAUUACUAAACAAGGUUUUUAUGAAUAAUGGAAUUCUCGGGUGCCAA,0.547
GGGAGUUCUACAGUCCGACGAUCCUGUGUUUCUCUUUUCUCUGAAAGGAUUAAUAGAUCUGAAGCUUUGGGCCACUCAGAGCCUUCCUUGAUGCUGCCAGAGUCUUCUUAUUUAGAUUUUCUGUCUUAAACCAUGGAAUUCUCGGGUGCCAA,0.23
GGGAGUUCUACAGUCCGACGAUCCCAUUGAGAUCUUCCUGCUGAGUCCUUUCCAGGGGCCAAUUUUGGAUGAGCAUGGAGCUGUCACCUCUCAGCUGCUGGAUGACUUGAGAUGAAAAAGGAGAGACAUGGAAUGGAAUUCUCGGGUGCCAA,5.96
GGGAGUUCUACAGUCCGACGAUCGGUGAAGUCUGUGUACCCAUACUGCAGCCCCAUCCCAUGGGGCCCCUGAAGACCCACUGAGGAAUUCCGUAGGGUCUUGUUCCCACGACCGGAGUGCUGGCUCUCACAGUUGGAAUUCUCGGGUGCCAA,0.403
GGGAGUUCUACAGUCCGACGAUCACUACCUUUUUCUGUAUGCUUUCCAAAGUGUUUCCCUCAAUGUUUGAUUAAAACAUUUGCUCAUAGCCAGCCUGCCUUUCUACGAGAUAGGCAGGACCUCUGAGCGAUGUUGGAAUUCUCGGGUGCCAA,0.437
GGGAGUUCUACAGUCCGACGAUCAAGUUCUUGACAUUAAUCUGUUGAGUUGUGGAUACUGGAAACCAUUUGUGUGUUCAAUCAGAUAAUUCUGACUUCUGCAUUGCCACACACGAGAUAUUCUGCUUUCAGACUGGAAUUCUCGGGUGCCAA,0.206
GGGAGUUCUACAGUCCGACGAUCUGAGGUGGUUUUGGGCUGUGGUUUCCAGUCUGACCCAGGAGGAACUGGCUAGGCUGCUUCAGUUUACAACAGGCUCUUCUCAGCUCCCACCUGGAGGAUUUGCUGCCCUCUGGAAUUCUCGGGUGCCAA,0.259
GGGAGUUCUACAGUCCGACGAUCACAUUCACUACAUAUUUAAUCAUGCUUAAAAUGUUUGUAUUUACUGCCAUGCAAUUGAUAUAGUAAAUCGACUAGAAAAUUAGUAUGCCACUUAAUUAAGAUAAAAAUGCUGGAAUUCUCGGGUGCCAA,0.604
